Measurements pooled from the literature.
Compare with care: the assays were run in different laboratories. Numbers after ± are the reported error.

`Cc1ccc(C(=O)Nc2ccc(S(=O)(=O)O)c3cc(S(=O)(=O)O)cc(S(=O)(=O)O)c23)cc1NC(=O)c1cccc(NC(=O)Nc2cccc(C(=O)Nc3cc(C(=O)Nc4ccc(S(=O)(=O)O)c5cc(S(=O)(=O)O)cc(S(=O)(=O)O)c45)ccc3C)c2)c1` gave an EC50 of less than 10000 nM (Dengue virus 2; viral replication; BHK-21; 24 h).
With `Cc1cc(N2C(=O)C(O)=C(C(=O)c3ccc(C)o3)C2c2cc(Cl)cc(Cl)c2)no1` (stereo not shown) the EC50 was 22000 nM (West Nile virus; viral replication, plaque; BHK, Kunjin; 72 h).
`O=C(C1CCCCC1)N1CC(=O)N2CCc3ccccc3C2C1` (stereo not shown) gave an EC50 of no more than 660 nM (Schistosoma mansoni; motility; adult worms, all incubation times).
For `Nc1ncn(CC(O)C(F)(F)F)c(=O)n1` (stereo not shown), the EC50 was 40000 to 270000 nM (human mastadenovirus C; viral replication).
With `Cc1ccnc2c1NC(=O)c1cccnc1N2C1CC1` the EC50 was 130 ± 41 nM (HIV-1; viral replication; MT-4, IIIB).
For `CCCCCOc1ccc(-c2nc(N)[nH]c2C(F)(F)F)cc1`, the EC50 was 74200 ± 2500 nM (Mycolicibacterium smegmatis; biofilm).
`COc1ccc(C(=O)NN=Cc2ccc(O)c3ncccc23)cc1` has an EC50 of greater than 100000 nM (Enterococcus faecium; bacterial growth; ATCC 19434; cation-supplemented medium).
With `Cc1noc(/C=C/c2ccccn2)c1[N+](=O)[O-]` the EC50 was roughly 6000 nM (Schistosoma mansoni; parasite motility; 48 h, adult).
`Cc1cc(C)cc(S(=O)(=O)c2c(C(=O)NCCNS(=O)(=O)c3ccc(-c4ccccc4)cc3)[nH]c3ccc(Cl)cc23)c1` has an EC50 of 210 ± 48 nM (HIV-1; viral replication; MT-4, IIIB).
With `N=c1c2ncn3c2ncn1[C@@H]1O[C@H](COP(=O)(O)OP(=O)(O)OC[C@H]2O[C@@H]3[C@H](O)[C@@H]2O)[C@@H](O)[C@H]1O` the EC50 was 410 nM (Lytechinus pictus; Ca2+ release, agonist, Fluo-3 fluorimetry; egg homogenate; together with: carvedilol 30 µM, 2 min preincubation).
With `Cc1cc(C)cc(S(=O)(=O)c2c(C(=O)NCCNS(=O)(=O)c3ccccc3)[nH]c3ccc(Cl)cc23)c1` the EC50 was 14 ± 1.1 nM (HIV-1; viral replication; MT-4, IIIB).
`Nc1nc(=O)c2c([nH]1)NC[C@@H]1CN(c3ccc(C(=O)N[C@@H](CCC(=O)O)C(=O)O)cc3)C(=O)N21` has an EC50 of roughly 5000 nM (Leishmania; macrophages; intracellular amastigotes).
The EC50 of `COc1ccc(S(=O)(=O)NCCCCCNC(=O)c2[nH]c3ccc(Cl)cc3c2S(=O)(=O)c2cc(C)cc(C)c2)cc1` is reported as 23 ± 8.1 nM (HIV-1; viral replication; MT-4, IIIB).
`C[C@H]1CN(c2n[nH]c3nc(N[C@H]4CC[C@H](NS(=O)(=O)CCC(F)(F)F)CC4)ncc23)CCO1` gave an EC50 of 130 nM (Leishmania donovani; human PBMC, DD8).
For `Cc1cc(C)cc(S(=O)(=O)c2c(C(=O)NCCCNS(=O)(=O)c3cccnc3)[nH]c3ccc(Cl)cc23)c1`, the EC50 was 8 ± 0.89 nM (HIV-1; viral replication; MT-4, IIIB).
The EC50 of `CCCOc1ccc(-c2nc(N)[nH]c2C(F)(F)F)cc1` is reported as 120000 ± 3000 nM (Mycolicibacterium smegmatis; biofilm).

Repeated from above:
The EC50 of `COc1ccc(S(=O)(=O)NCCCCCNC(=O)c2[nH]c3ccc(Cl)cc3c2S(=O)(=O)c2cc(C)cc(C)c2)cc1` is reported as 23 ± 8.1 nM (HIV-1; viral replication; MT-4, IIIB).
With `Cc1ccnc2c1NC(=O)c1cccnc1N2C1CC1` the EC50 was 130 ± 41 nM (HIV-1; viral replication; MT-4, IIIB).
